Measurements pooled from the literature.
Numbered parts are unrelated; each lists some results of a single study. Changes are numbered by the printed parent chain.

Sample 1 — technique: RNA Bind-n-Seq; molecule type: RNA; matrix: in vitro; tested at: 200 nM; notes: whole 134-nt RNA, ends assumed; with: 150 mM LiCl; reference: input library; reading: higher = stronger binding; all molecules: 7-deaza-guanosine replaces G
Target: Fragile X messenger ribonucleoprotein 1, C-terminal low-complexity region (Fmr1, Mus musculus, UniProt P35922)
Constant ends, left off below: GGGAGUUCUACAGUCCGACGAUC … UGGAAUUCUCGGGUGUCAAGG
Strand	log2 enrichment
GCAGGAAGUAAAAACAAAAAAAAAUGCUUCGGAUAGUGGCAGGGGUGGGGGUUGCUAAGGAAAGGGUGGGAUGGGAGUGGGUAAAGAGUU	1.28
UAACUUUAGAGGAGGAUCUGAUGGAUAUGGCAGUGGACGUGGAUUUGGGGAUGGCUAUAACGGGUAUGGAGGAGGACCUGGAGGUGGCAA	-0.297
UCCUGUGCUACACAUCGUAUGUACCGAAUCAAAUUUUUAAACCCCCCCAAAUUUUUAAAAAAGUAUUAUGUUACGCCGUUCGGAUCUGCA	1.9
ACCAUGCAGGUGGGCAUCUUUGGGAAGUGGGGCAAGGGGGGGAUAGGGAGGGGGGUAACACUUUGGGAACAGGUGGUCCCACGUCGUUUC	1.35
CUCAAGUCCUGUGCUACACAUCGUAUGUACCGAAUCGGGGCCGGCCGGGCCGGGAAAGUAUUAUGUUACGCCGUUCGGAUCUGCACUUCC	0.609
UAUCAGGAGGGCAGACUUCAAAAGCUACUAAAAAUGAACGGCCCUGAAGAUCUUCCCAAGUCCUAUGACUAUGACCUUAUCAUCAUUGGA	-2.04
UCAAGUCCUGUGCUACACAUCGUAUGUACCGAAUCGGAAAGGAAAGGGGAAAGGGAAAGUAUUAUGUUACGCCGUUCGGAUCUGCACUUC	-0.934

Sample 2 — target: CCNF, cyclin fold, Cln2 fusion (human); technique: yeast growth competition, sequencing; matrix: yeast; notes: strong parent motif; reference: not given; reading: higher = stronger binding
Starting sequence: WEE1 docking peptide (human); HKTFRKLRLFDTP; partner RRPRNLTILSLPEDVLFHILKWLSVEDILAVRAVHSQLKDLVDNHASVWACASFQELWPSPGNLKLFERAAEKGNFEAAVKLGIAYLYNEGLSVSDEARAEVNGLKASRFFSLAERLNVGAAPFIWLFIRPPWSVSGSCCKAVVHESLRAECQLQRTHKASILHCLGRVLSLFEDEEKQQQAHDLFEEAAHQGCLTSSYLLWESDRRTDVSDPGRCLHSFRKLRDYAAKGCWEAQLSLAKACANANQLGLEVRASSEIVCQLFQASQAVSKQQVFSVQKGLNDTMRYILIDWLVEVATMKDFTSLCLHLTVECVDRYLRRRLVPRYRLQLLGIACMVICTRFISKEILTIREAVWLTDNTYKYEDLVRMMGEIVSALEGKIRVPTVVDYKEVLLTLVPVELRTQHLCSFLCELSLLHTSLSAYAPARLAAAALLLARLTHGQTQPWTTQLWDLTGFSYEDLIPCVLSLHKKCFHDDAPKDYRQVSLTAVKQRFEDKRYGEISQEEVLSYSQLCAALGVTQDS
Change	normalised enrichment score
FKTFRKLRLFDTP [H1F]	1.56
HKTFRKLRLFDTY [P13Y]	1.93
HKTFRKSRLFDTP [L7S]	0.919
HKTFRCLRLFDTP [K6C]	2.69
HKTFRKLRLTDTP [F10T]	1.38
HKTFRPLRLFDTP [K6P]	2.67
HKTFRKLRDFDTP [L9D]	0.945
HKTFRDLRLFDTP [K6D]	0.994
HKTFRVLRLFDTP [K6V]	2.29
HKTCRKLRLFDTP [F4C]	6.9
HKTFEKLRLFDTP [R5E]	2.54
HKTFFKLRLFDTP [R5F]	1.63
HKTFRNLRLFDTP [K6N]	2.65
HKTFRKLCLFDTP [R8C]	2.83
HKTFRKTRLFDTP [L7T]	0.963
HKTFRKLRLFATP [D11A]	1.72
HKTFLKLRLFDTP [R5L]	1.95
HKTFIKLRLFDTP [R5I]	1.59
HKTFRKLRLFDTI [P13I]	3.09
HKTFRKLRWFDTP [L9W]	2.54
HKTFRKLRLFDMP [T12M]	2.7
HKTFKKLRLFDTP [R5K]	1.46
HKTFRKLRGFDTP [L9G]	1.61
HKSFRKLRLFDTP [T3S]	0.183
HKTFGKLRLFDTP [R5G]	0.906

Sample 3 — technique: universal PBM; molecule type: double-stranded DNA, one strand shown; matrix: in vitro; tested at: 600 nM; reading: higher = stronger binding
Target: Sal-like protein 4, full length isoform A (SALL4, Homo sapiens, UniProt Q9UJQ4, residues 1-1053)
UniProt Q9UJQ4, sequence (whole entry, looked up): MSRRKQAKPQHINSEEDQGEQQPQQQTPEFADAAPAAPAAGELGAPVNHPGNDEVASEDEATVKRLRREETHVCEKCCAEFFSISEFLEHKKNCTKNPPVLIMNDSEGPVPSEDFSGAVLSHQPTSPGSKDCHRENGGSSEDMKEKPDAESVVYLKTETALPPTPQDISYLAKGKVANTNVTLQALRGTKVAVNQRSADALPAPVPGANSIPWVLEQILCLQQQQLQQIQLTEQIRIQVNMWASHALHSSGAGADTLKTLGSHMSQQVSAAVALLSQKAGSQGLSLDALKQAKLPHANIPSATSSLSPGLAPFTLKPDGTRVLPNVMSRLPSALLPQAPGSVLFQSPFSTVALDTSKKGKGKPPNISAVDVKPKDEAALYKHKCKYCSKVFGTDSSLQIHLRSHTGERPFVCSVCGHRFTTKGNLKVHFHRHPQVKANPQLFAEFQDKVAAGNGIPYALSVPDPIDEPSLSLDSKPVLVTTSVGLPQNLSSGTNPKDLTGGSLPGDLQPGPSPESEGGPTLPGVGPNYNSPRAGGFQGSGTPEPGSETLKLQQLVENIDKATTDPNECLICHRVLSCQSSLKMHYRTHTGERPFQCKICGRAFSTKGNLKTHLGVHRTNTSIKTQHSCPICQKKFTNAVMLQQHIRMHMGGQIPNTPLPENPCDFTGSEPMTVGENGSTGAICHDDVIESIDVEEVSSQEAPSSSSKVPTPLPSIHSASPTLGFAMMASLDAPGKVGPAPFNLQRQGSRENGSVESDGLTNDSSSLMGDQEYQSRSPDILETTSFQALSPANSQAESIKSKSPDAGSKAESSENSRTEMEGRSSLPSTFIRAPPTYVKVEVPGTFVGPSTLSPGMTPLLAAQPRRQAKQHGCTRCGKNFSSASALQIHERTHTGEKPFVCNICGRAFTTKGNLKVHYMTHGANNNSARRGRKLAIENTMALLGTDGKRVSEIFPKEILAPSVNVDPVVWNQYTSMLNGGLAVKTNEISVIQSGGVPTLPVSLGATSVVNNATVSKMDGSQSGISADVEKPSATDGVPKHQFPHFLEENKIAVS
Notes: 8-mer, flanks averaged, mean of replicates
Strand	E-score
ATACCTCC	-0.0258
CCTTGTTC	-0.0894
GCATTAAC	0.113
GCTAGTCA	-0.0614
AGAATATG	0.304
CGGCAGAC	-0.379
CGGACACC	-0.33
CGAGACAG	-0.2
GGCTTACC	-0.314
CGTGTGTA	0.149
CGGCGGCC	-0.355
ACGGGAGG	-0.122
ACAGCCGT	-0.229
CAGGGGCA	-0.178
CGACAGAG	-0.162
GGCTATAC	-0.227
GATGGCAC	-0.29
ACCATCGG	-0.266
ACACCCTA	-0.0113
CCGCGTCC	-0.26
CCCAGCGG	-0.373
ATGCTCGA	0.0856
ATCGAAGG	0.117
GTGGCTTA	-0.119
CATCGCGG	-0.201

Sample 4 — technique: protein binding microarray; molecule type: double-stranded DNA, one strand shown; matrix: in vitro; tested at: not given; reference: not given; reading: higher = stronger binding
Target: Histone acetyltransferase KAT6A, winged helix 2, GST fusion (KAT6A, Homo sapiens, UniProt Q92794, residues 85-181)
Notes: 8-mer, flanks averaged, mean of 2 arrays, mostly near background
Residues (chain): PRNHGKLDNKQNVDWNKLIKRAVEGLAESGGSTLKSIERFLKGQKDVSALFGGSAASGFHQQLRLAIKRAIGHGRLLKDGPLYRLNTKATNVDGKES
Strand	E-score
ACGACGCT	-0.131
ACAGCAAG	0.0365
CTCCCGTC	0.128
AAGCCTAC	-0.0264
CTTTTGTA	-0.00658
GCGGAATA	0.117
AGTTGACG	-0.0532
GCAGGGGA	0.141
ACCTAGGG	-0.107
ACACTTCT	-0.1
CCGCACAC	0.0287
ACACCAGA	0.0482
AGGCCAAC	0.0674
CAAAGCGA	0.129
CATGTCCC	-0.0686
GACGCAAC	0.154
ATGGCCAT	-0.301
CGGGCCCG	0.12
GCAGTAAA	-0.0532
ATCGGCTG	0.0703
AACTAACC	0.0825
ATCCGTTG	-0.0193
GACGAGAC	-0.111
AGCTTTCC	0.0918

Sample 5 — technique: protein-binding microarray; molecule type: double-stranded DNA, one strand shown; matrix: in vitro; tested at: not given; reading: higher = stronger binding
Target: Protein max, full length (MAX, Homo sapiens, UniProt P61244-2, residues 1-151)
Notes: k-mer, scored over probes, only values ≥0.25
Strand	E-score
CCTCATGA	0.325
CACGTGGG	0.496
CAGTCACG	0.42
ATACACGC	0.404
AGAGCATG	0.401
ACGCTCGC	0.256
ACGCGGCA	0.357
GCCGCACC	0.267
ACGTGATC	0.418
ACGTTCCA	0.267
CACGCTGA	0.434
ATGCTTCC	0.36
TGGTCACA	0.292
CCACCACG	0.361
ACCTGTTC	0.258
CTGCACAC	0.317
CCCGCCCA	0.362

Sample 6 — target: CEP164, C-terminal peptide (human); technique: DHFR complementation, deep sequencing; matrix: yeast; reference: wild type; reading: higher = weaker binding
Notes: single substitutions, model-inferred values
Starting sequence: PDZK1, PDZ domain 2 (human); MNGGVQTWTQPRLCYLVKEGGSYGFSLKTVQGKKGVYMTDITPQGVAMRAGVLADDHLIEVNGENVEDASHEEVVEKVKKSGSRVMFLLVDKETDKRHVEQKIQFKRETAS; partner HNRVKVYRF
Change	binding free energy change [kcal/mol]
S70E	-0.328
M48I	0.404
W8D	-0.0203
Q104N	-0.187
K18T	0.382
G35D	0.639
V75L	1.31
Y23T	1.87
Q104E	-0.106
S83F	-0.137
D68Y	0.105
G35F	0.792
A47Q	1.43
I59K	0.533
I41A	1.28
G35H	0.0249
C14R	0.655

Sample 7 — target: BATF3, bZIP domain (human); technique: DHFR protein complementation; matrix: yeast; reference: wild-type JUN-FOS pair; reading: higher = stronger binding
Notes: single substitutions, most at no-binding floor
Starting sequence: JUN, bZIP domain (human); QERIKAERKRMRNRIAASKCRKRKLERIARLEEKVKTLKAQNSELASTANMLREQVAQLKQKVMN; partner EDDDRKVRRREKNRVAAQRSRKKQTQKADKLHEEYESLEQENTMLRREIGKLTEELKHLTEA
Change	binding fitness
E33M	0.237 natural log
E32V	0.147 natural log
E54V	0.0828 natural log
S47E	0.277 natural log
R30C	0.227 natural log
L31H	0.106 natural log
S43H	0.212 natural log
L38W	-0.167 natural log
I28E	0.257 natural log
E54L	0.0933 natural log
S47V	0.321 natural log
S43L	0.175 natural log
A49D	-0.442 natural log
A40W	0.125 natural log
L52W	-0.325 natural log
E32A	0.441 natural log
A46F	0.176 natural log
A49R	0.253 natural log
S43V	0.113 natural log

Mixed results
Substance	target	test	system	setting	scale	quantity	value
PhoQ, residues 284 288 289 292 302 303 SMYGEC	PhoP, residues 12 14 15 18 19 GHCSL (Escherichia coli, UniProt P23836)	Sort-seq, item: YFP reporter	E. coli	PhoQ-PhoP variant library, with: 10 µM Mg2+	reference: high Mg2+ state, higher = stronger signaling	fold induction	4.42

Excerpt of the above (sample 7):
Change	binding fitness
S47V	0.321 natural log
E32V	0.147 natural log
L52W	-0.325 natural log
L38W	-0.167 natural log
S43L	0.175 natural log
S47E	0.277 natural log
E54V	0.0828 natural log
S43V	0.113 natural log
L31H	0.106 natural log
E33M	0.237 natural log
A49R	0.253 natural log
E32A	0.441 natural log
S43H	0.212 natural log
E54L	0.0933 natural log
A40W	0.125 natural log
R30C	0.227 natural log
I28E	0.257 natural log
A49D	-0.442 natural log
